Published values pooled from the literature.
Compare with care: the assays were run in different laboratories.

CNC(=O)c1cc(Oc2ccc(NC(=O)Nc3cc(C(C)(C)C)nn3-c3ccc4ncccc4c3)c(F)c2)ccn1 — patients with related malignant hypertension (phase clinical trial; human patients; oral, dose not given, all doses): 2%
CN[C@@H](C)C(=O)N[C@H]1CN(S(=O)(=O)c2cccc(S(=O)(=O)N3CC[C@H]4CC[C@@H](C(=O)NC(c5ccccc5)c5ccccc5)N4C(=O)[C@@H](NC(=O)[C@H](C)NC)C3)c2)CC[C@H]2CC[C@@H](C(=O)NC(c3ccccc3)c3ccccc3)N2C1=O — patients with treatment-related asthenia (human, advanced solid tumours; 0.3 mg): 0%
Cn1cncc1-c1c(F)cncc1NC(=O)c1c(N)nn2cc(F)cnc12 — patients with anaemia DLT (human patients; oral, 180 mg once daily, 21 days, 2 weeks on 1 week off): 0%
C[C@@H]1OC(=O)NN=C1c1ccc(-c2ccc(F)cc2)c(C(F)(F)F)c1 — patients with adverse event (phase I trial, measured: Pneumonitis all grades; human patients; 5 mg loading then 0.25 mg daily): 0%
COc1ncnn2ccc(-c3cnc4nc(C)n(Cc5nnc([C@@H](C)F)o5)c4c3)c12 — patients with any adverse reaction (human; oral, dose not given, grade 2): 50%
CN(C)C(=O)c1cc2cnc(Nc3ccc(N4CCNCC4)cn3)nc2n1C1CCCC1 — patients with adverse event (measured: Leukopenia, AESI; human, HR+/HER2− advanced breast cancer; oral, dose not given, all grades, CTCAE v4.03): 35.5%
O=C1Nc2cc3[nH]nc(-c4ccncc4)c3cc2CN1Cc1ccccc1 — patients with subretinal fluid (CTCAE v4.03; human, relapsed or refractory advanced solid tumours; intravenous, 1.8 mg/kg, pooled schedules): 0%
COc1ccc(-c2c(-c3ccc(C#N)c(F)c3)nc(N3CCC(N)CC3)n(C)c2=O)cc1F — patients with serious TEAE (measured: hepatic hemorrhage; human patients; oral, 60 mg, dose expansion): 5%
Cn1nc(NS(C)(=O)=O)c2c(Cl)ccc(-n3c([C@H](Cc4cc(F)cc(F)c4)NC(=O)Cn4nc(C(F)F)c5c4C(F)(F)[C@@H]4C[C@H]54)nc4nc(OCCC(F)(F)F)ccc4c3=O)c21 — patients with laboratory abnormality (measured: LDL cholesterol grade 1 increase; human; 400 mg once daily, powder in bottle): 0%
C=CC(=O)Nc1cc(Nc2nccc(Nc3cc(Cl)c(F)cc3C(C)(C)O)n2)c(OC)cc1N1CC[C@@H](N(C)C)C1 — patients with fatigue (human patients; oral, 300 mg, treatment-emergent adverse events): 21.6%
C[C@]1(O)C[C@@](N)(c2ccc(-c3nc4n(c3-c3ccccc3)COc3ccncc3-4)cc2)C1 — patients with grade ≥3 Rash TEAE (human, advanced or metastatic solid tumours; dose not given, all patients): 17.6%
N[C@@H]1c2ccccc2OC12CCN(c1cnc3c(N4CCCc5ncccc54)n[nH]c3n1)CC2 — patients with treatment-related adverse event (measured: Constipation; human advanced or metastatic solid tumours; oral, 60 mg once daily, phase Ia pooled cohort): 8%
Cc1cn([C@H]2O[C@@H](CO[P@@](=O)(N[C@@H](C)C(=O)OC(C)C)Oc3ccccc3)[C@H](O)[C@H]2F)c(=O)[nH]c1=O — patients with TEAE (measured: Thrombocytosis; human; 50 mg): 0%

Repeated from above:
Cc1cn([C@H]2O[C@@H](CO[P@@](=O)(N[C@@H](C)C(=O)OC(C)C)Oc3ccccc3)[C@H](O)[C@H]2F)c(=O)[nH]c1=O — patients with TEAE (measured: Thrombocytosis; human; 50 mg): 0%
Cn1nc(NS(C)(=O)=O)c2c(Cl)ccc(-n3c([C@H](Cc4cc(F)cc(F)c4)NC(=O)Cn4nc(C(F)F)c5c4C(F)(F)[C@@H]4C[C@H]54)nc4nc(OCCC(F)(F)F)ccc4c3=O)c21 — patients with laboratory abnormality (measured: LDL cholesterol grade 1 increase; human; 400 mg once daily, powder in bottle): 0%
